Published values pooled from the literature.
Lines come from different studies, so protocols differ. ± gives the spread as reported.

O[C@H]1CCCN[C@@H]1CCCn1cnc2c(Cl)c(Cl)ccc21  half-life (human, plasma; oral, 300 mg, single dose, healthy volunteers): 8.33 h
CCCCCOc1ccc(-c2cc(-c3ccc(C(=O)N[C@H]4C[C@@H](O)[C@@H](O)NC(=O)[C@@H]5[C@@H](O)[C@@H](C)CN5C(=O)[C@H]([C@H](O)CC(N)=O)NC(=O)[C@H]([C@H](O)[C@@H](O)c5ccc(O)c(OS(=O)(=O)O)c5)NC(=O)[C@@H]5C[C@@H](O)CN5C(=O)[C@H]([C@@H](C)O)NC4=O)cc3)no2)cc1  half-life (young infants, plasma; intravenous, 7 and 10 mg/kg/day pooled, day 4, mean, repeat dosing): 11 h
CC[C@H](C)[C@H](NC(=O)[C@H](CCCNC(=N)N)NC(=O)[C@H](CC(C)C)NC(=O)[C@@H](N)Cc1ccccc1)C(=O)N[C@@H](CCCNC(=N)N)C(=O)N1CCC[C@H]1C(=O)N[C@@H](CCCCN)C(=O)O  half-life (rat plasma; no protease inhibitor): 0.7 h
C[C@@H](O)[C@H](NC(=O)[C@@H]1CCCN1C(=O)[C@H](CO)NC(=O)[C@H](CC1CCCCC1)NC(=O)[C@H](Cc1cccc2ccccc12)NC(=O)[C@H](CNC(=O)c1ccc(F)nc1)NC(=O)[C@H](CO)NC(=O)C1CCNCC1)C(N)=O  half-life (chemical stability; male human, serum; 1 mM, pH 7.4): 2.4 h
Oc1ccc2ccc3c4ccccc4cc4ccc1c2c43  half-life (UPLC-AMS; human, plasma; oral, 100 ng of [14C]-BaP): 8.03 ± 11.2 h
C#CCn1c(C)c(C(=O)C(=O)NC(C)(C)C#C)c(C)c1C(=O)Nc1ccc(F)c(F)c1  half-life (mouse liver microsomes; 1 µM, pH 7.4, with: ritonavir 1 µM): 0.475 h
CC[C@H](NC(=O)[C@H](CC(C)C)NC(=O)[C@H](Cc1cccc2ccccc12)NC(=O)[C@H](CNC(=O)c1ccc(F)nc1)NC(=O)[C@H](CO)NC(=O)C1CCNCC1)C(=O)N1CCC[C@H]1C(=O)N[C@H](C(N)=O)[C@@H](C)O  half-life (chemical stability; male human, serum; 1 mM, pH 7.4): > 24 h
CCCCCCCCCCCCCCCC(=O)NCCCC[C@H](NC(=O)[C@H](CCC(=O)O)NC(=O)[C@H](CCC(=O)O)NC(=O)[C@H](Cc1ccc(O)cc1)NC(=O)[C@H](CCC(=O)O)NC(=O)CCCCCNC(=S)Nc1ccc2c(c1)C(=O)OC21c2ccc(O)cc2Oc2cc(O)ccc21)C(=O)N[C@@H](Cc1ccc(O)cc1)C(=O)N[C@@H](CCC(=O)O)C(=O)NCC(=O)NCC(=O)NCC(=O)NCC(=O)N[C@@H](CO)C(=O)NCC(=O)NCC(=O)NCC(=O)NCC(=O)N[C@@H](CO)C(=O)N[C@@H](Cc1ccccc1)C(=O)N[C@@H](CC(N)=O)C(=O)N1CCC[C@H]1C(=O)N[C@@H](CCCNC(=N)N)C(=O)N[C@@H](Cc1c[nH]cn1)C(=O)NC(C)(C)C(=O)N[C@@H](CCC(=O)O)C(=O)NCC(=O)N[C@H](C(=O)N[C@@H](Cc1ccccc1)C(=O)N[C@H](C(=O)N[C@@H](CO)C(=O)N[C@@H](CC(=O)O)C(=O)N[C@H](C(=O)N[C@@H](CO)C(=O)N[C@@H](CO)C(=O)N[C@@H](Cc1ccc(O)cc1)C(=O)N[C@@H](CC(C)C)C(=O)N[C@@H](CCC(=O)O)C(=O)NCC(=O)N[C@@H](CCC(N)=O)C(=O)N[C@@H](C)C(=O)N[C@@H](C)C(=O)N[C@@H](CCCCN)C(=O)N[C@@H](CCC(=O)O)C(=O)N[C@@H](Cc1ccccc1)C(=O)N[C@H](C(=O)N[C@@H](C)C(=O)N[C@@H](Cc1c[nH]c2ccccc12)C(=O)N[C@@H](CC(C)C)C(=O)N[C@H](C(=O)N[C@@H](CCCCN)C(=O)NCC(=O)N[C@@H](CCCNC(=N)N)C(=O)NCC(=O)O)C(C)C)[C@@H](C)CC)C(C)C)[C@@H](C)O)[C@@H](C)O  half-life (refers to: released GLP-1 analogue; rhesus monkey, plasma; subcutaneous, 90 nmol/kg): 110 h
CC(C)C[C@H](NC(=O)[C@H](Cc1cccc2ccccc12)NC(=O)[C@H](CNC(=O)c1ccc(F)nc1)NC(=O)[C@H](CO)NC(=O)C1CCNCC1)C(=O)N[C@@H](C(=O)N1CCC[C@H]1C(=O)N[C@H](C(N)=O)[C@@H](C)O)[C@H](C)O  half-life (chemical stability; male human, serum; 1 mM, pH 7.4): > 24 h
COc1ccc(C[C@@H]2NC(=O)[C@H]([C@@H](C)O)NC(=O)[C@@H]3[C@@H]4CCN3C(=O)[C@@H]3Cc5cn(c6ccc(F)cc56)CCCCCCN(Cc5ccc(cc5)CCNC(=O)[C@]5(C)CCCN5C2=O)C(=O)CCC(=O)N[C@@H](C)C(=O)N[C@H](CNC(=O)CCCCC[N+](C)(C)C)C(=O)N[C@@H](Cc2cccc(c2)CNC(=O)CO4)C(=O)N3)cc1  half-life (healthy fasted humans, plasma; oral, 300 mg single dose, geometric mean, with: Labrasol 1800 mg): 130 h
O=c1[nH]c(Cc2ccccn2)nc2c1cnn2C1CCOCC1  half-life (male human, plasma; oral, 0.5 mg, single dose): 1.33 h
CC(C)C[C@H](NC(=O)[C@H](Cc1cccc2ccccc12)NC(=O)[C@H](CNC(=O)c1ccc(F)nc1)NC(=O)[C@H](CO)NC(=O)C1CCNCC1)C(=O)N[C@H](CO)C(=O)N1CCC[C@H]1C(=O)N[C@H](C(N)=O)[C@@H](C)O  half-life (chemical stability; male human, serum; 1 mM, pH 7.4): > 24 h
Cn1ccc2cc(-c3cnc4ccc(C(=O)N5CCCCC5)cc4n3)ccc2c1=O  half-life (ICR/CD-1 mouse, female, mouse liver S9 fraction; 2 µM, pH 7.5): > 4 h
